Results of several laboratories.
Every numbered part comes from another study and shows a few of its results, in no order.

Set 1
Target: Ras GTPase-activating protein-binding protein 1, C-terminal RGG region (G3BP1, Homo sapiens, UniProt Q13283)
Sequence of UniProt Q13283 (whole entry, looked up): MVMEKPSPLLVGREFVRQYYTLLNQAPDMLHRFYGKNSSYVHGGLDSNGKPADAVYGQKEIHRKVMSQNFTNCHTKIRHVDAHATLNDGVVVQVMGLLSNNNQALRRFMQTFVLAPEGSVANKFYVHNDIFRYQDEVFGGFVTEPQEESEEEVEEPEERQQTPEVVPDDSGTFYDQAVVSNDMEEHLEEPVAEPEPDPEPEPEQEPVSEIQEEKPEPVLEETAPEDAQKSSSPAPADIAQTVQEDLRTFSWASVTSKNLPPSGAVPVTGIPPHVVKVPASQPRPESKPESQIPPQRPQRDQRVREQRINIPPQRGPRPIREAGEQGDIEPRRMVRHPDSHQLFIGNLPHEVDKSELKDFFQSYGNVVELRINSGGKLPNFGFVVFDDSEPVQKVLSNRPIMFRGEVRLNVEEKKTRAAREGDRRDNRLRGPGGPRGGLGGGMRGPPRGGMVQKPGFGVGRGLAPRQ
Method: RNA Bind-n-Seq
Form: RNA
Sample: in vitro
Tested at: 1 µM
Notes: whole 134-nt RNA, ends assumed
Together with: 150 mM KCl
Reference: input library
Direction: higher = stronger binding
Quantity: log2 enrichment
Strand = GGGAGUUCUACAGUCCGACGAUCUUUUAAAGUGUUCUCCACCACACUUGGGCAUUUAUCUGUUUCUUUAAAUGGCCUUCUCUGUUUCUUGUUUGCAGGCAGCUAUCAAUGGUGUGGAAUUCUCGGGUGUCAAGG; value = 0.109
Strand = GGGAGUUCUACAGUCCGACGAUCUGGCCCUGGUGGCAUGCGGGGAGGAAGAGGUGGCCUCAUGGAUCGUGGUGGUCCCGGUGGAAUGUUCAGAGGUGGUCGUGGUGGAGACAGUGGAAUUCUCGGGUGUCAAGG; value = 3.71
Strand = GGGAGUUCUACAGUCCGACGAUCCAAGUCCUGUGCUACACAUCGUAUGUACCGAAUCGGGAGGGAAAAAAAGGGUGGGAAAGUAUUAUGUUACGCCGUUCGGAUCUGCACUUCUGGAAUUCUCGGGUGUCAAGG; value = 0.921

Set 2
Target: Histone acetyltransferase KAT6A, winged helix 1, GST fusion (KAT6A, Homo sapiens, UniProt Q92794, residues 1-85)
Method: protein binding microarray
Form: double-stranded DNA, one strand shown
Sample: in vitro
Tested at: not given
Notes: 8-mer, flanks averaged, mean of 2 arrays, mostly near background
Reference: not given
Direction: higher = stronger binding
Quantity: E-score
Residues (chain): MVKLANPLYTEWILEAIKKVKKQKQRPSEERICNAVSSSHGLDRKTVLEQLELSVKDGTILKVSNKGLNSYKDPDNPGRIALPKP
Strand = CAACGAAA; value = -0.137
Strand = ACAACGCC; value = 0.224
Strand = GAGTGATA; value = -0.0394
Strand = AGTGCCTA; value = -0.177
Strand = ACGATTTA; value = -0.177

Set 3
Target: RING finger protein unkempt homolog, zinc fingers 1-6, SBP tag (UNK, Homo sapiens, UniProt Q9C0B0, residues 30-357)
Sequence of UniProt Q9C0B0 (30-357, looked up): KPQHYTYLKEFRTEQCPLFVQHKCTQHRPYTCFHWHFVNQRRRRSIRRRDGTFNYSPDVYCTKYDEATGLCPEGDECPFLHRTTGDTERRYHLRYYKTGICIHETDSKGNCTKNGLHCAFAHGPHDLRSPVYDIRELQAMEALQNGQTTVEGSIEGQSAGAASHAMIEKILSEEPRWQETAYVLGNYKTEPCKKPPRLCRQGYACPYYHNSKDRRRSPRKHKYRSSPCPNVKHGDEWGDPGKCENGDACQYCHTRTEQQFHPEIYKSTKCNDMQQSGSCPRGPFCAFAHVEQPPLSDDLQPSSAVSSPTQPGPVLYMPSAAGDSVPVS
Method: RNA Bind-n-Seq
Form: RNA
Sample: in vitro
Tested at: 100 nM
Notes: RNA with constant flanks, vertebrate orthologous sites, ends assumed
Reference: input RNA pool
Direction: higher = stronger binding
Quantity: bound/input enrichment
Strand = GGGAGUUCUACAGUCCGACGAUCAUGCCAUCCUCCUGGUGUGUGACUGCCAGUGAAGCAUCCACCAGCGCUGCAAGGGGUCCAGAGUAUUUUCUGCUGCCUCAGUCCCCAAUGCCUUCCAGCAGAAGUGGCGGCAGAUGGUUGCAACAGAGGAUUGAGCAUCA; value = 0.219 ratio
Strand = GGGAGUUCUACAGUCCGACGAUCUUACAGUCAUUGAUGGACUCUAUUUUUUUAUUAUUCCUUGGACCUUGGUCGUUUUUAUACUAGCAAAAAAAAUGUCUUGUUUUGAUUUUUUUUUUGUUUUUUGGGGGGGAGGGCGGCGGGCAACAGAGGAUUGAGCAUCA; value = 1.54 ratio
Strand = GGGAGUUCUACAGUCCGACGAUCCUCCGCUGAACCCCAUUUCUUCUGUUUCAUAGUGCAGAAGUAUUCUUUCAACUAUAUUUUUAGUGGACUUGUUUUAAUUUUAGAGGAAUUUCCAGUACAGAUGCUGUGAGCUGACAUGGACAACAGAGGAUUGAGCAUCA; value = 1.39 ratio
Strand = GGGAGUUCUACAGUCCGACGAUCAACAAACACGUUUCCACUGGGUUUUGCCUGAAAAAAAAAAAAAAAAUGUACCCGAGCACAUAGAGCUUUUUAAUAGCACUAACCAAUGCCUUUUUAGAUGUAUUUUUGAUGUAUAUAUCUCAACAGAGGAUUGAGCAUCA; value = 1.1 ratio

Single results of other studies
Molecule = PhoQ, residues 284 288 289 292 302 303 NLALSC; target = PhoP, residues 12 14 15 18 19 QYFSL (Escherichia coli, UniProt P23836); assay = Sort-seq, refers to: YFP reporter; test system = E. coli; setting = PhoQ-PhoP variant library, together with: 10 µM Mg2+; how to read = reference: high Mg2+ state, higher = stronger signaling; quantity = fold induction; value = 1.02

A few entries again (set 2):
Strand = AGTGCCTA; value = -0.177
Strand = GAGTGATA; value = -0.0394
